Experimental data collected from several papers.
Protocols differ between the studies behind these lines. ± gives the spread as reported. Values after ≈ are worked out from the molar mass of the structure shown.
Organism: Mycobacterium tuberculosis

O=c1c2cc(Cl)c(CO)cc2[nH]c(=S)n1Cc1cccnc1
MIC90 (PptT conditional knockdown): 0.44 µM (≈ 0.147 µg/mL)

Cc1ccc(NCCc2cccc(F)c2)c(C(N)=O)c1
IC90 (growth; H37Rv-LP; 120 h): 59 ± 5 µM

COc1ccc(-c2cc(C(F)(F)F)c3c(N)c(C(=O)Nc4cccc(C)c4F)sc3n2)cc1
selectivity index (H37Rv wild type; reference: HepG2 IC50 over M. tuberculosis IC90): < 1

NC(=O)c1cc(F)ccc1OCCc1cccc(F)c1
selectivity index (H37Rv-LP; reference: HepG2 CC50 over Mtb IC90): > 1.5

COc1ccc(-c2cc(C(F)(F)F)c3c(N)c(C(=O)Nc4cccc(C)c4C)sc3n2)cc1
selectivity index (H37Rv wild type; reference: HepG2 IC50 over M. tuberculosis IC90): 33

O=c1c2cc(Cl)ccc2[nH]c(=S)n1Cc1ccncc1
MIC90 (PptT conditional knockdown): > 100 µM

COc1ccc(-c2cc(C(F)(F)F)c3c(N)c(C(=O)N4CCCC4)sc3n2)cc1
IC90 (H37Rv wild type; 120 h): inactive

NS(=O)(=O)N=c1[nH]c2ccc(Cl)cc2c(=O)n1Cc1cccnc1
MIC90 (PptT conditional knockdown): > 100 µM

O=C(NC1COC1)c1cc(-c2ccoc2)ccc1OCCc1cccc(F)c1
selectivity index (H37Rv-LP; reference: HepG2 CC50 over Mtb IC90): 32

NNC(=O)c1ccncc1
MIC50 (W4; 120 h): < 0.005 µM

COc1ccc(-c2cc(C(F)(F)F)c3c(N)c(C(=O)Nc4c(C)cccc4C)sc3n2)cc1
IC50 (growth inhibition; H37Rv LepB under-expressing): > 100 µM

NC(=O)c1cc(-c2cccs2)ccc1OCCc1cccc(F)c1
selectivity index (H37Rv-LP; reference: HepG2 CC50 over Mtb IC90): 65

COc1ccc(-c2cc(C(F)(F)F)c3c(N)c(C(=O)NC4CC5(C4)CN(C(=O)OC(C)(C)C)C5)sc3n2)cc1
selectivity index (H37Rv wild type; reference: HepG2 IC50 over M. tuberculosis IC90): < 1

Cc1c(-c2ccc(N3CCCCC3)cc2)[nH]c2ccccc2c1=O
IC50 (bacterial growth, microplate alamarBlue; H37Rv; aerobic): 1.57 ± 0.03 µM

CN(C)C(=O)OCc1cc2[nH]c(=S)n(Cc3cncnc3)c(=O)c2cc1Cl
MIC90 (PptT conditional knockdown): 6.16 µM (≈ 2.5 µg/mL)

COc1ccc(-c2cc(C(F)(F)F)c3c(N)c(C(=O)Nc4cc(C)cc(C)c4)sc3n2)cc1
selectivity index (H37Rv wild type; reference: HepG2 IC50 over M. tuberculosis IC90): < 1

Cc1cscc1-c1ccc(OCCc2cc(F)cc(F)c2)c(C(N)=O)c1
selectivity index (H37Rv-LP; reference: HepG2 CC50 over Mtb IC90): 18

O=C(c1cc2ccc(-c3ccccc3)nc2s1)N1CCCC1
IC50 (growth inhibition; H37Rv LepB under-expressing): > 100 µM

C[C@H](N)C(=O)OCc1cc2[nH]c(=S)n(Cc3cncnc3)c(=O)c2cc1Cl
MIC90 (PptT conditional knockdown): 0.29 µM (≈ 0.118 µg/mL)

O=C(NC1CC1)c1cc(-c2ccoc2)ccc1OCCc1cccc(F)c1
selectivity index (H37Rv-LP; reference: HepG2 CC50 over Mtb IC90): 15

CN1CCN(c2ccc(Nc3nccc(-c4ccnc(NCc5ccccc5)c4)n3)cc2C(F)(F)F)CC1
MIC (H37Rv auxotrophic strain): > 60.8 µg/mL

CC(=O)OCc1cc2[nH]c(=O)n(Cc3cccnc3)c(=O)c2cc1Cl
MIC90 (PptT conditional knockdown): 1 µM

O=C(NC12CC3CC(CC(C3)C1)C2)c1cc(-c2ccc(F)nc2F)c[nH]1
lung CFU log reduction (H37Rv, mice; oral, 100 mg/kg, 504 h; reference: untreated): ~1 log CFU
